# Experimental data of several laboratories.
# Each line is one published result; not all experiments were run side by side.
# Target: Serine/threonine-protein kinase SIK3 (SIK3, Homo sapiens, UniProt Q9Y2K2)
# Chain of UniProt Q9Y2K2 (whole entry, looked up): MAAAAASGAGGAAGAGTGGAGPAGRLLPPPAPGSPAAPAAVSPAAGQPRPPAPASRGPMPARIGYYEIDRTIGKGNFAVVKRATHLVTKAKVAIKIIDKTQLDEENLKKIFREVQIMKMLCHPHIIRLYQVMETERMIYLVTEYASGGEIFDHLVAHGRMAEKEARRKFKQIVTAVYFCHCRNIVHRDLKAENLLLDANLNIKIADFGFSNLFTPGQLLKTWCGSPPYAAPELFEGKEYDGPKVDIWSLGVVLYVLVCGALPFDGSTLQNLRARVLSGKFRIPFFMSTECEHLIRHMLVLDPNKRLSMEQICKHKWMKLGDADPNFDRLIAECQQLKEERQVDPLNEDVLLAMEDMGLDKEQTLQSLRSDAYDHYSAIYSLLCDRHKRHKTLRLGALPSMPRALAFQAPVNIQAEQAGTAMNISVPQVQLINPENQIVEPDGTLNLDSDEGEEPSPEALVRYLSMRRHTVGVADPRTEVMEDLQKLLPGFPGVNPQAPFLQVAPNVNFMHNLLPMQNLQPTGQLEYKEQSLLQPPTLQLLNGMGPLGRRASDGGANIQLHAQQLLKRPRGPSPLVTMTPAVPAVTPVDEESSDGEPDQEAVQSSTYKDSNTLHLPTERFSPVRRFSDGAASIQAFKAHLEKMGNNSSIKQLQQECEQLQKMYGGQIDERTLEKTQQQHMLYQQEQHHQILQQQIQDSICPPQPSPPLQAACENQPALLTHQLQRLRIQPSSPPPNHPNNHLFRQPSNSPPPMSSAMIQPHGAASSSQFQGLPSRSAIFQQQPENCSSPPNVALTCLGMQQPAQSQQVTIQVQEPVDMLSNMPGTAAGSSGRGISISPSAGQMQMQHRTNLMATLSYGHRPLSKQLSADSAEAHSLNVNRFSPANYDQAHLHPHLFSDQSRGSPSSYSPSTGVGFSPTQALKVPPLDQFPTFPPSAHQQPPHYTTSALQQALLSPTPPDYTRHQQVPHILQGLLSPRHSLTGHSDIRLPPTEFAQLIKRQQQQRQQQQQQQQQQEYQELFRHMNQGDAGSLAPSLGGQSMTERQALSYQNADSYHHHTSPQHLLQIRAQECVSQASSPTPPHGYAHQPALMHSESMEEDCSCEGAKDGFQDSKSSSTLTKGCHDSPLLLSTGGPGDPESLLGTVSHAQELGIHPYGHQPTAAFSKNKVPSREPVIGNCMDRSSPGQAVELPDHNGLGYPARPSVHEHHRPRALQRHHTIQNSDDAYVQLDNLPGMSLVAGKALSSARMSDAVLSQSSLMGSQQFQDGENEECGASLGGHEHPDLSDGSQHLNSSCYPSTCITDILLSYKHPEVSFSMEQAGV
SMILES,assay,setting,scale,measurement,value
CNc1ncc2c(/C=C/C(=O)N3CCC(OC)CC3)nn(Cc3cccc(C(F)(F)F)c3)c2n1,"kinase activity, inhibitor",1 µM,relative to: untreated control,remaining activity,99%
C=CC(=O)N1CCC(COCC(=O)N2CCN(c3nc(-c4cnc(N)nc4C(F)F)nc(N4CCOC[C@@H]4C)n3)CC2)CC1,KINOMEscan,1 µM,relative to: DMSO control,remaining binding,98%
COc1cc(-c2cncc3c2CN(C)Cc2cc(N4CCNCC4)ccc2-3)cc(OC)c1OC,kinase activity,"1 µM, human enzyme, with: ATP 10 µM",relative to: DMSO control,remaining activity,102%
C=CC(=O)N1CCC(C(=O)NCC(=O)N2CCN(c3nc(-c4cnc(N)nc4C(F)F)nc(N4CCOCC4)n3)CC2)CC1,KINOMEscan,1 µM,,remaining binding,76%
O=C(NC1CCC1)c1ccc2nc(-c3cccc(NS(=O)(=O)NCCN4CCCCC4)c3)cn2c1,enzyme activity,10 µM,,remaining activity,100%
C[C@@H](c1ccc(-n2cnc3c(N)ncnc32)cc1)N1CCc2nn(C)c(Cc3ccccc3)c2C1=O,KINOMEscan,0.1 µM,relative to: DMSO control,remaining binding,68%
COc1cc(N2CCN(C)CC2)ccc1Nc1nc(N)n(C(=S)NCc2c(Cl)cccc2Cl)n1,enzyme activity,10 µM,relative to: control,remaining activity,13%
C1=C/COCc2cc(ccc2OCCN2CCCC2)Nc2nccc(n2)-c2cccc(c2)COC/1,kinase binding panel,concentration not given,relative to: control,remaining binding,83%

# Excerpt of the above:
SMILES,assay,setting,scale,measurement,value
C1=C/COCc2cc(ccc2OCCN2CCCC2)Nc2nccc(n2)-c2cccc(c2)COC/1,kinase binding panel,concentration not given,relative to: control,remaining binding,83%
